Published values of several laboratories.
Every numbered part comes from another study and shows a few of its results, in no order. Substitutions count along the parent as printed.

Block 1
Target: Protein max, full length (MAX, Homo sapiens, UniProt P61244-2, residues 1-151)
Method: protein-binding microarray
Molecule type: double-stranded DNA, one strand shown
Matrix: in vitro
Tested at: not given
Notes: k-mer, scored over probes, only values ≥0.25
Direction: higher = stronger binding
| Strand | E-score |
| --- | --- |
| CCGCGTGA | 0.46 |
| CGTGCCAG | 0.269 |
| CAACGTGA | 0.444 |
| CGTGTCAG | 0.312 |
| AATACACG | 0.339 |
| CGTGCGCC | 0.417 |
| ATGCTCCA | 0.293 |
| ACACGGGA | 0.325 |
| AGCATGGA | 0.418 |
| CCGCCTGC | 0.279 |
| ACAGCACG | 0.354 |
| GCATGGGA | 0.373 |
| CCACCCCA | 0.335 |
| CACGCTGG | 0.449 |

Block 2
Target: Ras GTPase-activating protein-binding protein 1, full length (G3BP1, Homo sapiens, UniProt Q13283)
Chain of UniProt Q13283 (whole entry, looked up): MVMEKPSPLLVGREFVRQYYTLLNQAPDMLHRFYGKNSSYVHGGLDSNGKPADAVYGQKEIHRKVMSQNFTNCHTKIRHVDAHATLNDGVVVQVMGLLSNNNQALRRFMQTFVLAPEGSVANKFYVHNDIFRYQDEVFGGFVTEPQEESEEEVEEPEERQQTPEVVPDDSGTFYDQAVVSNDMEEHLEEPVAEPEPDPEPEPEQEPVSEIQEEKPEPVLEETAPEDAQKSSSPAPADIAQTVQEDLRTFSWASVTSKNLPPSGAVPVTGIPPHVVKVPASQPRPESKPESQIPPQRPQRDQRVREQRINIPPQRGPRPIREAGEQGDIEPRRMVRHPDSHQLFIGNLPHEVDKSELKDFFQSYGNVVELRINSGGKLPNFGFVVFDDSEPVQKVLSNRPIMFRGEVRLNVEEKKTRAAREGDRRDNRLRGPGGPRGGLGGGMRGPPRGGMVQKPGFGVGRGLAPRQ
Method: RNA Bind-n-Seq
Molecule type: RNA
Matrix: in vitro
Tested at: 200 nM
Notes: whole 134-nt RNA, ends assumed
Together with: 150 mM KCl
Relative to: input library
Direction: higher = stronger binding
Shared flanks, not repeated: GGGAGUUCUACAGUCCGACGAUC … UGGAAUUCUCGGGUGUCAAGG
| Strand | log2 enrichment |
| --- | --- |
| CUGUGCUACACAUCGUAUGUACCGAAUCGGGGUUUUUUUGGGGAAAAAAAGGGGAAAGGGGAAAGUAUUAUGUUACGCCGUUCGGAUCUG | -0.317 |
| AGUCCUGUGCUACACAUCGUAUGUACCGAAUCGGUUUGGAAAAAAAGGUUUUUUUGGAAAGUAUUAUGUUACGCCGUUCGGAUCUGCACU | -1.57 |
| UGGGAGGUGGAUUUUGUUUAUUUUUUUAGCUCAUUUCCAGGGAUGGGAAUUUUUUUUUAAUAUGUGUCAUGAAUAAAGUUGUUUUUGAAA | -0.212 |
| UCUGGACAUGCAGGUGGACCAGUCAGUGCCAGAGUAAGUUGUUGUUUUCUUAAAAGAAAAAAAAAAAUGUAAAAUCAUCUAACCCUAACC | -0.00439 |
| GUCCUGUGCUACACAUCGUAUGUACCGAAUCGGGGUGGGGAAAAAGGGGUUUUUGGGGAAAGUAUUAUGUUACGCCGUUCGGAUCUGCAC | 0.396 |
| CUGUGCUACACAUCGUAUGUACCGAAUCGGGGUUUUUGGGGAAAAAGGGGUUUUUUUGGGGAAAGUAUUAUGUUACGCCGUUCGGAUCUG | -0.16 |
| UAACUUUAGAGGAGGAUCUGAUGGAUAUGGCAGUGGACGUCGAUUUGGGGAUGGCUAUAAUGGGUAUGGAGGAGGACCUGGAGGUGGCAA | 0.277 |

Block 3
Target: CCND3, cyclin fold, Cln2 fusion (human)
Method: yeast growth competition, sequencing
Matrix: yeast
Notes: weak parent motif
Relative to: not given
Direction: higher = stronger binding
Starting sequence: E2F1 docking peptide (human); PPVKRRLDFETDH
| Variant | normalised enrichment score |
| --- | --- |
| PVVKRRLDFETDH [P2V] | 0.392 |
| PPVKRRLDFETIH [D12I] | 0.398 |
| PPVKKRLDFETDH [R5K] | 0.0832 |
| PPVGRRLDFETDH [K4G] | 0.497 |
| PPVKRRLDCETDH [F9C] | 0.0248 |
| PPVKRRLDWETDH [F9W] | 0.27 |
| PPVKARLDFETDH [R5A] | 0.253 |
| PPVKRRLDDETDH [F9D] | 0.079 |
| PPVKRRLDFETNH [D12N] | 0.589 |
| PPVKRRVDFETDH [L7V] | 0.108 |
| PPVKRRLYFETDH [D8Y] | 0.368 |
| PPVKRRLDFENDH [T11N] | 0.879 |
| PPVKRRLTFETDH [D8T] | 0.542 |
| PPDKRRLDFETDH [V3D] | -0.0119 |

Block 4
Target: RNA binding protein fox-1 homolog 2, RRM domain, GST-SBP tag (RBFOX2, Homo sapiens, UniProt O43251-10, residues 100-194)
Method: RNA Bind-n-Seq
Molecule type: RNA
Matrix: in vitro
Tested at: 365 nM
Notes: natural RNA segment, single round, ends assumed
Relative to: no-protein control
Direction: higher = stronger binding
Shared flanks, not repeated: GGGAGUUCUACAGUCCGACGAUC … UGGAAUUCUCGGGUGCCAA
Residues (chain): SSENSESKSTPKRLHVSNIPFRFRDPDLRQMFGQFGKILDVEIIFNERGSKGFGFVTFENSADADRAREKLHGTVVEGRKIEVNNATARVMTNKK
| Strand | RBNS enrichment (R) |
| --- | --- |
| UAAGCAUGCUUCAAGAGGCAGUUGACCCACUGGAAUUUCUAUAAGGCUGGUACCCUUCCCAGAGUUACAGAAUCUUAGGUGCCGUCUCUAGUCUGUGAGGGAGGAACUCC | 18.6 |
| AAAGCUUAGUAAUGGAACUUGGCUGUGGCCCAGAGCUUUCUCCUUAUAGAGAAUUUGAUCUGCUCCGUGUGCGCUCUCUGCUAUUAGCCGGAGCUAUUUAUGGCAAACAC | 0.368 |
| AAGACUGGAGGGCAGCGGGGAGACUUCCAUCGGGCUAGAGUGCCACACUCUCCAGUCAUGUCUCCCAAGGGGAUGCAAUUCAGGCUGAGGAAAAGAUGCCAUAUCCCUCU | 0.351 |
| CUGAGGCAGCAGUGUGAGGCCAGGGCAGAGUGAGACCCAGCCCUCAUCCCGAGCACCUCCACAUCCUCCACGUUCUGCUCAUCAUUCUCUGUCUCAUCCAUCAUCAUGUG | 0.422 |
| AAUAGGAAAUGGGAUAAAAUAUCAAGAGACAAUGAAAACACUGCCUUGACAUGAGGACCAGCAAGUUUAUUCUUUUCAUUUUCAGUGAUGUUGGGAAUGGACUGGGUUUU | 0.524 |
| UCCCAGUGACACCACCCCCUGCCUCUGGUUACUAUAAGAUGAGCCUUUAAGAUUCUUUCUAGACUUAAAUUUUGUGCCAUGGCCCACUGGAUGUAGAUAUUCUACAAGGA | 0.236 |
| GAGGCAAUGUGAAAGAGGGAGUAUUACUUUUAUGUACAAAGUUAUUUAUUUAUAGAAAUUUUGGUACAGUGUACAUUGAAAACCAUGUAAAAUAUUGAAGUGUCUAACAA | 0.741 |
| UUGCUCCGCCUCUGCUGGCACAUUUCCCCAGACCUGAGCUCCCCACCACCCCAGCUGCUCCCCUCCCUCCUCUGUCCCUAGGUCAGCUUGCUGCCCUAGGCUCCGUCAGU | 0.274 |
